Assay results from different studies.
Parts stem from different laboratories: compare values within a part only. “And” joins repeats or separate records; there may be more than shown.

Study 1
Compound: Cc1ncsc1-c1ccc(C(CO)NC(=O)C2CC(O)CN2C(=O)C(C(C)C)n2cc(-c3ccc(COc4c(-c5c(C)c(F)cc6[nH]ncc56)c(C5CC5)cc5c(N6CC7CC6CN7)nc(OC6CCOCC6)nc45)cc3)nn2)cc1 (stereo not shown)
Effect on: cell growth or viability
Method: ATP luminescence
Time: 6 days
| cell line | setting | viability |
| --- | --- | --- |
| SW-403 | 0.1 µM | 59.3% and 52.4% and 61.9% and 69% |
| SW-403 | 30 nM | 78.3% and 74.6% and 85.5% and 70.8% |
| PaTu 8902 | 10 µM | 35.9% and 33% and 35.8% and 33.6% |
| HPAC | 0.3 µM | 12.5% and 5.67% and 4.1% and 3.74% |
| GP2d | 0.1 µM | 28.3% and 39.6% and 33.6% and 29.7% |
| HCT-116 | 1 nM | 96.6% and 122% and 91% and 102% |
| PK-59 | 1 µM | 3.46% and 3.41% and 2.11% and 3.47% |

Study 2
Compound: Cc1ncc(-c2cc3c(C#N)c(-c4c(C)ccc(O)c4C)cnc3[nH]2)cn1
Host: Sprague-Dawley rat
Dose: dose not given
| setting | plasma concentration |
| --- | --- |
| intravenous, 8 h | not detected |
| oral, 24 h | not detected |
| intravenous, 24 h | not detected |

Study 3
Structure (SMILES): C[C@@H]1CN(c2ccc(-c3cc(C(=O)NCCOCCOCCOCCOCCOCCOCCNC(=O)/C=C/c4[nH]cc(C(=O)N[C@@H](CC(N)=O)c5ccc(F)c(Cl)c5)c4-c4ccc(Cl)cc4F)ccc3F)cc2NC(=O)c2ccc(F)cc2C(F)(F)F)C[C@H](C)N1C
Effect on: thermal unfolding
Method: differential scanning fluorimetry
Tested at: 5.5 µM
Reading: higher = more unfolded
WDR5: WD repeat-containing protein 5 (WDR5, Homo sapiens, UniProt P61964)
DCAF1: DDB1- and CUL4-associated factor 1 (DCAF1, Homo sapiens, UniProt Q9Y4B6)
UniProt Q9Y4B6, sequence (whole entry, looked up): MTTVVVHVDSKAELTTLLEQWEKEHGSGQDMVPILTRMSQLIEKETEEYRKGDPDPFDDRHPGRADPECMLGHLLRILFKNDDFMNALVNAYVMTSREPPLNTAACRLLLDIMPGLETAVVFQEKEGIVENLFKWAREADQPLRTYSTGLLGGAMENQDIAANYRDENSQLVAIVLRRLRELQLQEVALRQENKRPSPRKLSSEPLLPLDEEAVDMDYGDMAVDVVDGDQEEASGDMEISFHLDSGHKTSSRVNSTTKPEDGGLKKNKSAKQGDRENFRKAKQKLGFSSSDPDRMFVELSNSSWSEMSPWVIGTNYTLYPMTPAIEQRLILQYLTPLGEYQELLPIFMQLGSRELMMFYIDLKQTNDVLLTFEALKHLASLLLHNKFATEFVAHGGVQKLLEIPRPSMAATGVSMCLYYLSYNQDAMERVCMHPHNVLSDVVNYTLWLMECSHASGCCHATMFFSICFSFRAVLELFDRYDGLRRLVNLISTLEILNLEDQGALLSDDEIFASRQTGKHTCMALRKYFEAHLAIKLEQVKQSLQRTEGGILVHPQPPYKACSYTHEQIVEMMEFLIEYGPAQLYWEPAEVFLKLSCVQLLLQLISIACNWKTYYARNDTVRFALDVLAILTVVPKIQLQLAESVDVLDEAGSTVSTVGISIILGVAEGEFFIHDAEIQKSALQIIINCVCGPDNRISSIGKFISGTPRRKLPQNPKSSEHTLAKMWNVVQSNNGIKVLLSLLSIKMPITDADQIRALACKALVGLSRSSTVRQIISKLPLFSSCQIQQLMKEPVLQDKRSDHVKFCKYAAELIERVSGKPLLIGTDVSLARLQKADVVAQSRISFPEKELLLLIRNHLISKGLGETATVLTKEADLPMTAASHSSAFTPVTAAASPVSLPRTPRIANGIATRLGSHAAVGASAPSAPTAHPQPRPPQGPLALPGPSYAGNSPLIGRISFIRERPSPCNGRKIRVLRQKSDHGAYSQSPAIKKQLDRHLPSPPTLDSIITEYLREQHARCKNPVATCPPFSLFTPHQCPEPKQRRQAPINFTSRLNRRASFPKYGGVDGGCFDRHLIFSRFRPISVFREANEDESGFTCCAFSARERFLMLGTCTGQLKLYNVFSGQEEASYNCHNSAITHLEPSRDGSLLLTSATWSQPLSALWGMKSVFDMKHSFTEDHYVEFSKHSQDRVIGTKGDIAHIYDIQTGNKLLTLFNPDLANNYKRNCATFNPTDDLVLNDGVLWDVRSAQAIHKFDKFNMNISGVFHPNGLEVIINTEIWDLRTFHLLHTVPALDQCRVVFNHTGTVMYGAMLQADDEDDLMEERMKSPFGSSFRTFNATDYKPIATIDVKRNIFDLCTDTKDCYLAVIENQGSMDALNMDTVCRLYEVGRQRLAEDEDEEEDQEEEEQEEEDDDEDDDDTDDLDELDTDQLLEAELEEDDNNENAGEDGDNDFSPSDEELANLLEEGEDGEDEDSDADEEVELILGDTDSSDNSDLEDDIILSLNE
| target | setting | SYPRO Orange fluorescence |
| --- | --- | --- |
| WDR5 | 92.81 °C | 50800 a.u. |
| WDR5 | 70.41 °C | 28800 a.u. |
| DCAF1 | 41.6 °C | 12600 a.u. |
| WDR5 | 44.4 °C | 14500 a.u. |
| DCAF1 | 59.41 °C | 44900 a.u. |
| WDR5 | 81.81 °C | 65700 a.u. |
| WDR5 | 85.21 °C | 61800 a.u. |

Study 4
Compound: NC/C(=C\F)COc1ccc(C(F)(F)F)c(Cn2c(=S)[nH]c(=O)c3[nH]cnc32)c1
Target: Myeloperoxidase (MPO, Homo sapiens, UniProt P05164)
UniProt P05164, sequence (whole entry, looked up): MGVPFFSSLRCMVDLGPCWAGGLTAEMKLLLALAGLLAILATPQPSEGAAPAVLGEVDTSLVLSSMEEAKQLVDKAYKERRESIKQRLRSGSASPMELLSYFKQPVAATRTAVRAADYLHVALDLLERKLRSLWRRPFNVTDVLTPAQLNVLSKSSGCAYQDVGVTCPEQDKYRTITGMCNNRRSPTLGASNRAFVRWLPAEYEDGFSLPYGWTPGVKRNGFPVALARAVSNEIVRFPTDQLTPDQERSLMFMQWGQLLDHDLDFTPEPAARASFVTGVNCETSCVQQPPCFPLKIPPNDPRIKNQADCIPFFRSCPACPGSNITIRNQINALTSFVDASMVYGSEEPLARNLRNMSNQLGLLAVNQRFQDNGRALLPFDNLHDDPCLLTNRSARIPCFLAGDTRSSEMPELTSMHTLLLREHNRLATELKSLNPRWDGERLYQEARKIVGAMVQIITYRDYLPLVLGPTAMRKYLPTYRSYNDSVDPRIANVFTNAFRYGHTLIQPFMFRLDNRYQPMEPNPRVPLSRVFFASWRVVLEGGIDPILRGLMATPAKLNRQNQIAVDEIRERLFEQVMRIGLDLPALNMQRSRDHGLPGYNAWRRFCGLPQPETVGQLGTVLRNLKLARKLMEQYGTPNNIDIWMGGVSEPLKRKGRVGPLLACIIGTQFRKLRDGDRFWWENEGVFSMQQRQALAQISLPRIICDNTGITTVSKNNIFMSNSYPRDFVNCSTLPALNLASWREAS
Effect on: enzyme activity
| test | setting | inhibition [%] |
| --- | --- | --- |
|  | 30 µM | 99.5 |
| inhibitor, fluorescence | 30 µM | 99.7 |
|  | 3.333 µM | 98.6 |
| inhibitor, fluorescence | 3.333 µM | 98.7 |

Other studies, line by line
| Compound | test | test system | setting | endpoint | value |
| --- | --- | --- | --- | --- | --- |
| CCN1/C(=C/C=C2\CCCC(/C=C/C3=[N+](CC)c4ccccc4C3(C)C)=C2NCCCCCCCCN2CCC(Nc3nc4ccccc4n3Cc3ccc(F)cc3)CC2)C(C)(C)c2ccccc21 | dynamic light scattering | PBS | pH 6.5 | particle diameter | 460 nm |

A few entries again (study 2):
| setting | plasma concentration |
| --- | --- |
| oral, 24 h | not detected |
| intravenous, 24 h | not detected |
